Published values gathered from unrelated publications.
Compare with care: the assays were run in different laboratories. Several values in a cell are separate wells, animals, samples, runs or records.
GBA1 R534H: Lysosomal acid glucosylceramidase (GBA1, Homo sapiens, UniProt P04062, R534H)
UniProt P04062, sequence (whole entry, unmodified, looked up): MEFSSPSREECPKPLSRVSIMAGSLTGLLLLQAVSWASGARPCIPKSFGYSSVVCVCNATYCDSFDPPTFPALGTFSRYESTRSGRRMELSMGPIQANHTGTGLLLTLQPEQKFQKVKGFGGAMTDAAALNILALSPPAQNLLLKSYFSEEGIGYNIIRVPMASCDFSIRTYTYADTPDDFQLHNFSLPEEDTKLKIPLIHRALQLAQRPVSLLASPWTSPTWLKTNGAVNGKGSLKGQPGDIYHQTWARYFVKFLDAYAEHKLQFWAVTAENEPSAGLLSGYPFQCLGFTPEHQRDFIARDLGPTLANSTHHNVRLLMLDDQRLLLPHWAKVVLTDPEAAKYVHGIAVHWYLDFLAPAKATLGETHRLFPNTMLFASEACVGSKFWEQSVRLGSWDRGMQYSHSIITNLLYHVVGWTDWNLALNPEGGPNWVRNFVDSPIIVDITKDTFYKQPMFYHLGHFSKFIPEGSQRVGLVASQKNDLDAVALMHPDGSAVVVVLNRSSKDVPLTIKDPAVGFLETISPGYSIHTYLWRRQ
UniProt Q9Y5S2, sequence (whole entry, looked up): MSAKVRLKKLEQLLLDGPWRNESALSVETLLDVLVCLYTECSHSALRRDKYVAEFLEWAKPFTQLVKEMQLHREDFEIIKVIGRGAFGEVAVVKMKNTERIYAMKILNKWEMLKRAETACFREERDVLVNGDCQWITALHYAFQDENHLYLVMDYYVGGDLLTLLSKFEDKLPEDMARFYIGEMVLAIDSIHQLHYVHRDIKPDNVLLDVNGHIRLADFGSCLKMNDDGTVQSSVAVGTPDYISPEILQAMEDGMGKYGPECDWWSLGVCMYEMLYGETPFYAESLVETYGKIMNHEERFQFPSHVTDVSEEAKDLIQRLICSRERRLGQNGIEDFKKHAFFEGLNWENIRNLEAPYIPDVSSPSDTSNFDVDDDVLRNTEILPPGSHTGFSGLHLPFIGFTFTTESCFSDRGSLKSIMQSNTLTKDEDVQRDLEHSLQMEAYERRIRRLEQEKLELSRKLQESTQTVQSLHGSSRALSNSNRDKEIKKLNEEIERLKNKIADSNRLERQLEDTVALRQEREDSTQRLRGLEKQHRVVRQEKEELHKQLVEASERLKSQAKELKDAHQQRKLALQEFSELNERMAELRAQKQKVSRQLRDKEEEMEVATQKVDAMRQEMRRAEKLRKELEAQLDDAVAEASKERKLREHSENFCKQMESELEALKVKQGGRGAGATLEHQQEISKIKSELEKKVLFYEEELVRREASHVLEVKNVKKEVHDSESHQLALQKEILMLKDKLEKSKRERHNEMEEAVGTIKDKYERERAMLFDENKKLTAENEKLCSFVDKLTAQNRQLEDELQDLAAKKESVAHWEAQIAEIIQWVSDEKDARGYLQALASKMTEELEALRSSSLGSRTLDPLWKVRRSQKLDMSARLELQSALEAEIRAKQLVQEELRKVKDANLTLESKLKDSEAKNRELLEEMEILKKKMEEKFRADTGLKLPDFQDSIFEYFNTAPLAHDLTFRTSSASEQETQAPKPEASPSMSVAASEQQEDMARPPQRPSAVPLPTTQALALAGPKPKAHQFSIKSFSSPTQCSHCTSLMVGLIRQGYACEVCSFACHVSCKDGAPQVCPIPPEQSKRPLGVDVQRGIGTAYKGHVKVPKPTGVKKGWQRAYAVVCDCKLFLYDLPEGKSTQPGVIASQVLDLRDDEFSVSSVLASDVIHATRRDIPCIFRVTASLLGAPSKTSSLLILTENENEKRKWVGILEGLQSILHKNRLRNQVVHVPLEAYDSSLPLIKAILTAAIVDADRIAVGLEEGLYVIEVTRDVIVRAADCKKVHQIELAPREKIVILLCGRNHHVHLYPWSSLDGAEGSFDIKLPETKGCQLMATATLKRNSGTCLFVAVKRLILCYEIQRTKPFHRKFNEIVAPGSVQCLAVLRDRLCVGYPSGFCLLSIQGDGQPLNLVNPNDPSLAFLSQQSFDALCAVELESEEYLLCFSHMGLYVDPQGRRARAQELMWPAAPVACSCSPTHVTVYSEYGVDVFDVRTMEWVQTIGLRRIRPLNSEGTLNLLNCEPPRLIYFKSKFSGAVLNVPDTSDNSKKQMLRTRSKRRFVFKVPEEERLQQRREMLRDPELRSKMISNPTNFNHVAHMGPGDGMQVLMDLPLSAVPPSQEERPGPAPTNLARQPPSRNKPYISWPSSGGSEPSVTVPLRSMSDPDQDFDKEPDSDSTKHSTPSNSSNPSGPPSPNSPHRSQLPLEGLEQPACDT
UniProt Q53HV7, sequence (whole entry, looked up): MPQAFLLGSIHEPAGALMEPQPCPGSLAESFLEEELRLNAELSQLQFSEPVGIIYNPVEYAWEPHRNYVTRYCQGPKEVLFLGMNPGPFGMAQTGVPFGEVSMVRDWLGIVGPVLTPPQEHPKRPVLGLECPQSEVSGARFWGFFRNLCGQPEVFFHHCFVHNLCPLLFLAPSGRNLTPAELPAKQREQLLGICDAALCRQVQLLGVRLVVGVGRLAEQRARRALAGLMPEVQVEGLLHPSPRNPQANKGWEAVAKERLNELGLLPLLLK
UniProt P45985, sequence (whole entry, looked up): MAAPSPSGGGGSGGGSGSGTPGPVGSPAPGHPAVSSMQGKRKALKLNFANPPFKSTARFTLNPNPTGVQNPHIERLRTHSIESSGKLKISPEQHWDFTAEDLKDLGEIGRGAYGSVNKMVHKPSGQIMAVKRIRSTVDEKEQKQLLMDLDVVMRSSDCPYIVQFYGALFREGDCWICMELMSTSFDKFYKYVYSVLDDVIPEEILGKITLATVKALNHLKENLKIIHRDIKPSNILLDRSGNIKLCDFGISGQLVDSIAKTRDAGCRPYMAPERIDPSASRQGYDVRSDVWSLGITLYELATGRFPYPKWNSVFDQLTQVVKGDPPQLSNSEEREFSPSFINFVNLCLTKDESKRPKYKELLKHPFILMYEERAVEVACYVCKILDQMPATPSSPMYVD
UniProt P43220, sequence (whole entry, unmodified, looked up): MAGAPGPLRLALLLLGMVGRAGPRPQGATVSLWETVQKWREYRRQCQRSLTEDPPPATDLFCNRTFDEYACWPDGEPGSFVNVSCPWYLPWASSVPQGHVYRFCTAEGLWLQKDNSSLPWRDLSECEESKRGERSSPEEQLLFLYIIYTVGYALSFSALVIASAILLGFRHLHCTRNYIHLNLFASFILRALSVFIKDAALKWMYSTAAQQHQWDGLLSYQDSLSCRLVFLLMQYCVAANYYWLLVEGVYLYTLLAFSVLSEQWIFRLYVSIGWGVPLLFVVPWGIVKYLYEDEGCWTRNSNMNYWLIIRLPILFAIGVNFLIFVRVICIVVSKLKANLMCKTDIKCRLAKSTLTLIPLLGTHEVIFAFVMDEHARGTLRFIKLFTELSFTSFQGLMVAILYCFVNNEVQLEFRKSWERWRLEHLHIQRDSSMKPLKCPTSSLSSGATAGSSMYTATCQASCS
UniProt P78368, sequence (whole entry, looked up): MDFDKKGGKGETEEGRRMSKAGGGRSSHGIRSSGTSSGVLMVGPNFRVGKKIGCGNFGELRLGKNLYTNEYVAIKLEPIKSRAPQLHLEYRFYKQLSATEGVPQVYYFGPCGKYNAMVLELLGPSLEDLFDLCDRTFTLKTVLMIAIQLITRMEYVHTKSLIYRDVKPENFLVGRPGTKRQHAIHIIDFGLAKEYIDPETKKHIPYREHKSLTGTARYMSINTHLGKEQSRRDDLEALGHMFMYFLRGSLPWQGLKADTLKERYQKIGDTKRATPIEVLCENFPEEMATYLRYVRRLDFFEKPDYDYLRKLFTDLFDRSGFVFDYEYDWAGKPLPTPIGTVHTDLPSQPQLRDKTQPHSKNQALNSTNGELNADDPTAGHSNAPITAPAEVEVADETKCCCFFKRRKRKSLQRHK

OC[C@@H]1[C@@H](O)[C@H](O)[C@@H](O)CN1CCCCCOCc1ccc(-c2ccccc2F)cc1  IC50 (GBA1 R534H; inhibitor, 4MU-β-D-glucopyranoside; together with: 4MU-β-D-glucopyranoside): 600 nM
CSCC[C@H](NC(=O)[C@H](CCC(N)=O)NC(=O)[C@H](CCCCN)NC(=O)[C@H](CCCNC(=N)N)NC(=O)[C@H](Cc1ccc(O)cc1)NC(=O)[C@H](CCCNC(=N)N)NC(=O)[C@H](CO)NC(=O)[C@H](Cc1ccc(O)cc1)NC(=O)[C@H](CO)NC(=O)[C@H](CC(=O)O)NC(=O)[C@@H](NC(=O)[C@@H](N)Cc1ccccc1)[C@@H](C)O)C(=O)N[C@@H](C)C(=O)N[C@H](C(=O)N[C@@H](CCCCN)C(=O)N[C@@H](CCCCN)C(=O)N[C@@H](Cc1ccc(O)cc1)C(=O)N[C@@H](CC(C)C)C(=O)N[C@@H](C)C(=O)N[C@@H](C)C(=O)N[C@H](C(=O)N[C@@H](CC(C)C)C(=O)NCC(=O)N[C@@H](CCCCN)C(=O)N[C@@H](CCCNC(=N)N)C(=O)N[C@@H](Cc1ccc(O)cc1)C(=O)N[C@@H](CCCCN)C(=O)N[C@@H](CCC(N)=O)C(=O)N[C@@H](CCCNC(=N)N)C(=O)N[C@H](C(=O)N[C@@H](CCCCN)C(=O)N[C@@H](CC(N)=O)C(=O)N[C@@H](CCCCn1cc(C[C@H](NC(=O)CNC(=O)[C@H](CO)NC(=O)[C@H](CCCNC(=N)N)NC(=O)[C@H](CO)NC(=O)[C@H](CC(C)C)NC(=O)[C@H](CC(C)C)NC(=O)CNC(=O)[C@H](C)NC(=O)[C@H](CC(C)C)NC(=O)[C@H](CCCNC(=N)N)NC(=O)[C@H](Cc2c[nH]cn2)NC(=O)[C@@H](NC(=O)[C@@H](N)C(C)C)[C@@H](C)O)C(=O)N[C@H](C(=O)N[C@H](C(=O)N[C@@H](CCCCN)C(=O)N[C@@H](CC(N)=O)C(=O)N[C@@H](CC(N)=O)C(=O)N[C@@H](Cc2ccccc2)C(=O)N[C@H](C(=O)N2CCC[C@H]2C(=O)N[C@H](C(=O)N[C@@H](CC(N)=O)C(=O)N[C@H](C(=O)NCC(=O)N[C@@H](CO)C(=O)N[C@@H](CCCCN)C(=O)N[C@@H](C)C(=O)N[C@@H](Cc2ccccc2)C(N)=O)C(C)C)[C@@H](C)O)C(C)C)C(C)C)C(C)C)nn1)C(N)=O)C(C)C)C(C)C)C(C)C  Kb (PACAP-responsive receptors, rat; cAMP accumulation, antagonist; rat spinal cord; together with: VIP): 229 nM
COc1cc(C2C(NC(=O)c3ccc(NC(=O)OC(C)(C)C)cc3)(C(=O)O)C(c3ccc(OC(=O)c4cccs4)c(OC)c3)C2(NC(=O)c2ccc(NC(=O)OC(C)(C)C)cc2)C(=O)O)ccc1OC(=O)c1cccs1 (centres unmarked)  EC50 (GLP1R (Homo sapiens, UniProt P43220, F381A); cAMP, agonist): 15.8 nM
OC[C@@H]1[C@@H](O)[C@H](O)[C@@H](O)CN1CCCCCOCCC12CC3CC(CC(C3)C1)C2  IC50 (GBA1 R534H; inhibitor, 4MU-β-D-glucopyranoside; together with: 4MU-β-D-glucopyranoside): 190 nM
Cc1c[nH]c2nccc(-c3ccc(C(=O)N[C@@H]4c5c(F)cc(C(F)F)cc5C[C@@H]4O)cn3)c12  Kd (MAP2K4 (Homo sapiens, UniProt P45985); binding, competition with immobilised ligand): 68.5 nM
O=C(CCCCCN1C[C@H](O)[C@@H](O)[C@H](O)[C@@H]1CO)NC12CC3CC(CC(C3)C1)C2  IC50 (GBA1 R534H; inhibitor, 4MU-β-D-glucopyranoside; together with: 4MU-β-D-glucopyranoside): 40000 nM
CCc1nc2cc3ccccc3cc2cc1C(=O)N1CCC[C@H]1C(=O)N[C@@H](C/C=C\C[C@H](NC(=O)[C@@H]1CCCN1C(=O)c1cc2cc3ccccc3cc2nc1CC)C(=O)N[C@@H](CCCCN)C(=O)NCCCN)C(=O)N[C@@H](CCCCN)C(=O)NCCCN  Kd ((CUG)4 RNA; SPR): 26 nM
OC[C@H]1[C@@H](O)[C@H](O)[C@@H](O)CN1CCCCCOCC12CC3CC(C1)CC(COCCCCCN1C[C@H](O)[C@@H](O)[C@H](O)[C@@H]1CO)(C3)C2  IC50 (GBA1 R534H; inhibitor, 4MU-β-D-glucopyranoside; together with: 4MU-β-D-glucopyranoside): 6000 nM
Cn1ncc2cc(-c3cncc(Cl)c3N3CCC4(CCNC4=O)CC3)ccc21  Kd (CDC42BPB (Homo sapiens, UniProt Q9Y5S2); cell-free assay; lysate): 18200 nM
CSCC[C@H](NC(=O)[C@H](CCC(N)=O)NC(=O)[C@H](CCCCN)NC(=O)[C@H](CCCNC(=N)N)NC(=O)[C@H](Cc1ccc(O)cc1)NC(=O)[C@H](CCCNC(=N)N)NC(=O)[C@H](CO)NC(=O)[C@H](Cc1ccc(O)cc1)NC(=O)[C@H](CO)NC(=O)[C@H](CC(=O)O)NC(=O)[C@@H](NC(=O)[C@@H](N)Cc1ccccc1)[C@@H](C)O)C(=O)N[C@@H](C)C(=O)N[C@H](C(=O)N[C@@H](CCCCN)C(=O)N[C@@H](CCCCN)C(=O)N[C@@H](Cc1ccc(O)cc1)C(=O)N[C@@H](CC(C)C)C(=O)N[C@@H](C)C(=O)N[C@@H](C)C(=O)N[C@H](C(=O)N[C@@H](CC(C)C)C(=O)NCC(=O)N[C@@H](CCCCN)C(=O)N[C@@H](CCCNC(=N)N)C(=O)N[C@@H](Cc1ccc(O)cc1)C(=O)N[C@@H](CCCCN)C(=O)N[C@@H](CCC(N)=O)C(=O)N[C@@H](CCCCn1cc(C[C@H](NC(=O)CNC(=O)[C@H](CO)NC(=O)[C@H](CCCNC(=N)N)NC(=O)[C@H](CO)NC(=O)[C@H](CC(C)C)NC(=O)[C@H](CC(C)C)NC(=O)CNC(=O)[C@H](C)NC(=O)[C@H](CC(C)C)NC(=O)[C@H](CCCNC(=N)N)NC(=O)[C@H](Cc2c[nH]cn2)NC(=O)[C@@H](NC(=O)[C@@H](N)C(C)C)[C@@H](C)O)C(=O)N[C@H](C(=O)N[C@H](C(=O)N[C@@H](CCCCN)C(=O)N[C@@H](CC(N)=O)C(=O)N[C@@H](CC(N)=O)C(=O)N[C@@H](Cc2ccccc2)C(=O)N[C@H](C(=O)N2CCC[C@H]2C(=O)N[C@H](C(=O)N[C@@H](CC(N)=O)C(=O)N[C@H](C(=O)NCC(=O)N[C@@H](CO)C(=O)N[C@@H](CCCCN)C(=O)N[C@@H](C)C(=O)N[C@@H](Cc2ccccc2)C(N)=O)C(C)C)[C@@H](C)O)C(C)C)C(C)C)C(C)C)nn1)C(=O)N[C@H](C(=O)N[C@@H](CCCCN)C(=O)N[C@@H](CC(N)=O)C(=O)N[C@@H](CCCCN)C(N)=O)C(C)C)C(C)C)C(C)C  Kb (PACAP-responsive receptors, rat; cAMP accumulation, antagonist; rat spinal cord; together with: VIP): 417 nM
CCc1sc(C(=O)NC2CCN(C)CC2)cc1Br  translation activity (Trypanosoma cruzi; reporter mRNA translation, inhibitor, refers to: Renilla luciferase mRNA; cell-free extract; concentration not given, test 2; relative to: positive over negative control): 124% and 102%
Cc1nn(-c2cccc(N)c2)c(=O)c2cnc(Nc3ccc(N4CCNCC4)cc3)nc12  IC50 (CSNK1G2 (Homo sapiens, UniProt P78368); SelectScreen kinase): > 10000 nM
CC1CS(=O)(=O)CCN1/N=C/c1ccc([N+](=O)[O-])o1 (centres unmarked)  translation activity (Trypanosoma cruzi; reporter mRNA translation, inhibitor, refers to: Renilla luciferase mRNA; cell-free extract; concentration not given; relative to: positive over negative control): 84.7% and 125%
COc1cc2nc(Cl)nc(Nc3ccc(Oc4cccc(-c5ccccc5)c4)cc3)c2cc1OC  AC50 (SMUG1 (Homo sapiens, UniProt Q53HV7); enzyme activity, activator, fluorescence): 600 nM

Repeated from above:
CSCC[C@H](NC(=O)[C@H](CCC(N)=O)NC(=O)[C@H](CCCCN)NC(=O)[C@H](CCCNC(=N)N)NC(=O)[C@H](Cc1ccc(O)cc1)NC(=O)[C@H](CCCNC(=N)N)NC(=O)[C@H](CO)NC(=O)[C@H](Cc1ccc(O)cc1)NC(=O)[C@H](CO)NC(=O)[C@H](CC(=O)O)NC(=O)[C@@H](NC(=O)[C@@H](N)Cc1ccccc1)[C@@H](C)O)C(=O)N[C@@H](C)C(=O)N[C@H](C(=O)N[C@@H](CCCCN)C(=O)N[C@@H](CCCCN)C(=O)N[C@@H](Cc1ccc(O)cc1)C(=O)N[C@@H](CC(C)C)C(=O)N[C@@H](C)C(=O)N[C@@H](C)C(=O)N[C@H](C(=O)N[C@@H](CC(C)C)C(=O)NCC(=O)N[C@@H](CCCCN)C(=O)N[C@@H](CCCNC(=N)N)C(=O)N[C@@H](Cc1ccc(O)cc1)C(=O)N[C@@H](CCCCN)C(=O)N[C@@H](CCC(N)=O)C(=O)N[C@@H](CCCCn1cc(C[C@H](NC(=O)CNC(=O)[C@H](CO)NC(=O)[C@H](CCCNC(=N)N)NC(=O)[C@H](CO)NC(=O)[C@H](CC(C)C)NC(=O)[C@H](CC(C)C)NC(=O)CNC(=O)[C@H](C)NC(=O)[C@H](CC(C)C)NC(=O)[C@H](CCCNC(=N)N)NC(=O)[C@H](Cc2c[nH]cn2)NC(=O)[C@@H](NC(=O)[C@@H](N)C(C)C)[C@@H](C)O)C(=O)N[C@H](C(=O)N[C@H](C(=O)N[C@@H](CCCCN)C(=O)N[C@@H](CC(N)=O)C(=O)N[C@@H](CC(N)=O)C(=O)N[C@@H](Cc2ccccc2)C(=O)N[C@H](C(=O)N2CCC[C@H]2C(=O)N[C@H](C(=O)N[C@@H](CC(N)=O)C(=O)N[C@H](C(=O)NCC(=O)N[C@@H](CO)C(=O)N[C@@H](CCCCN)C(=O)N[C@@H](C)C(=O)N[C@@H](Cc2ccccc2)C(N)=O)C(C)C)[C@@H](C)O)C(C)C)C(C)C)C(C)C)nn1)C(=O)N[C@H](C(=O)N[C@@H](CCCCN)C(=O)N[C@@H](CC(N)=O)C(=O)N[C@@H](CCCCN)C(N)=O)C(C)C)C(C)C)C(C)C  Kb (PACAP-responsive receptors, rat; cAMP accumulation, antagonist; rat spinal cord; together with: VIP): 417 nM
O=C(CCCCCN1C[C@H](O)[C@@H](O)[C@H](O)[C@@H]1CO)NC12CC3CC(CC(C3)C1)C2  IC50 (GBA1 R534H; inhibitor, 4MU-β-D-glucopyranoside; together with: 4MU-β-D-glucopyranoside): 40000 nM
